Published values from different studies.
A part holds a random share of what one study measured. Positions count from the first letter of the parent shown.

Set 1
Target: Sal-like protein 4, full length isoform B (SALL4, Homo sapiens, UniProt Q9UJQ4-2, residues 1-616)
Technique: universal PBM
Molecule type: double-stranded DNA, one strand shown
Medium: in vitro
Tested at: not given
Setting: 8-mer, flanks averaged, mean of replicates
Direction: higher = stronger binding
`CGCAACCC` has an E-score of -0.208.
`CGTGGCAA` gave an E-score of -0.0438.
`GGCGCTAA` gave an E-score of -0.168.
`AGGCGGAA` gave an E-score of 0.116.
For `ACACTTCA`, the E-score was 0.198.
The E-score of `CCCGGTTC` is reported as -0.276.
With `AAATGTAA` the E-score was 0.291.
`AGCGAGTA` gave an E-score of -0.124.
`CGAGGAGC` gave an E-score of -0.316.
With `CATTGATC` the E-score was 0.0385.
`CCTAGACC` gave an E-score of -0.071.
With `AATGAGGA` the E-score was -0.0227.
The E-score of `CCGGCGTC` is reported as -0.278.
`GCATTGAC` has an E-score of 0.0485.
`GAATATCC` has an E-score of 0.136.
`CTTTCCTC` gave an E-score of -0.0245.
For `ATACGAAC`, the E-score was 0.156.
With `AAATGAAC` the E-score was 0.217.
With `GTTTTATA` the E-score was 0.278.
The E-score of `ACCTCTTC` is reported as 0.0874.
The E-score of `GGCTACAA` is reported as -0.0603.

Set 2
Target: UBE2T UBC core domain (UniProt Q9NPD8)
Technique: yeast two-hybrid
Medium: yeast
Setting: mostly zero background
Baseline: not given
Direction: higher = stronger interaction
B1: DTX4 RING domain (UniProt Q9Y2E6); chain QKVRHPPDEDCTICMERLTAPSGYKGPQPTVKPDLVGKLSRCGHVYHIYCLVAMYNNGNKDGSLQCPTCKTIYGVKTGTQ
B2: MKRN1 RING domain (UniProt Q9UHC7); chain FAVQRSKDMVCGICMEVVYEKANPSERRFGILSNCNHTYCLKCIRKWRSAKQFESKIIKSCPECRITSNFVIPSE
B3: RNF111 RING domain (UniProt Q6ZNA4); chain EGTEEDTEEKCTICLSILEEGEDVRRLPCMHLFHQVCVDQWLITNKKCPICRVDIEAQLPSE
B4: TRAF5 RING domain (UniProt O00463); chain FVERLEERYKCAFCHSVLHNPHQTGCGHRFCQHCILSLRELNTVPICPVDKEVIKSQEVFK
B5: RNF38 RING domain (UniProt Q9H0F5); chain PNNHQSEQTLCVVCMCDFESRQLLRVLPCNHEFHAKCVDKWLKANRTCPICRADASEVHRDS
B6: TRIML1 RING domain (UniProt Q8N9V2); chain LMENLREELTCFICLDYFSSPVTTECGHSFCLVCLLRSWEEHNTPLSCPECWRTLEGPHFQS
B7: TRIM13 RING domain (UniProt O60858); chain MELLEEDLTCPICCSLFDDPRVLPCSHNFCKKCLEGILEGSVRNSLWRPAPFKCPTCRKETSATGINS
B8: TRIM4 RING domain (UniProt Q9C037); chain EAEDIQEELTCPICLDYFQDPVSIECGHNFCRGCLHRNWAPGGGPFPCPECRHPSAPAALRP
Construct (chain): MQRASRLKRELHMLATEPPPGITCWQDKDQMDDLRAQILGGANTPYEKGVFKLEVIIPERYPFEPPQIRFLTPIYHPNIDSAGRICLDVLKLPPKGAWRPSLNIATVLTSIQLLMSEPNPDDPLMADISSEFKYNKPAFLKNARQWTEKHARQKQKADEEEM
`B1 (DTX4 RING domain)` — result for “lacZ reporter activity”: 0.
For `B2 (MKRN1 RING domain)`, “lacZ reporter activity” read 0.
`B3 (RNF111 RING domain)`: “lacZ reporter activity” 0.
`GAAPGPEAAECLVCSELALLVLFSPCQHRTVCEECARRMKKCIRCQVVVSKKLRPD (MIB2 RING domain (UniProt Q96AX9))`: “lacZ reporter activity” 0.
`FQGDVDEDLICPICSGVLEEPVQAPHCEHAFCNACITQWFSQQQTCPVDRSVVTVAHLRP (RNF41 RING domain (UniProt Q9H4P4))`: “lacZ reporter activity” 0.
`B4 (TRAF5 RING domain)` — result for “lacZ reporter activity”: 0.
`B5 (RNF38 RING domain)`: “lacZ reporter activity” 0.
For `B6 (TRIML1 RING domain)`, “lacZ reporter activity” read 0.
For `ASLPTSEEDLCPICYAHPISAVFQPCGHKSCKACINQHLMNNKDCFFCKTTIVSVEDWE (RNF123 RING domain (UniProt Q5XPI4))`, “lacZ reporter activity” read 0.
`B7 (TRIM13 RING domain)`: “lacZ reporter activity” 0.
`MPIRALCTICSDFFDHSRDVAAIHCGHTFHLQCLIQWFETAPSRTCPQCRIQVGKRTIIN (TRAIP RING domain (UniProt Q9BWF2))`: “lacZ reporter activity” 0.
`B8 (TRIM4 RING domain)` — result for “lacZ reporter activity”: 0.

Set 3
Target: CCNE1, cyclin fold, Cln2 fusion (human)
Technique: yeast growth competition, sequencing
Medium: yeast
Setting: strong parent motif
Baseline: not given
Direction: higher = stronger binding
Starting sequence: E2F1 docking peptide (human); PPVKRRLDLETDH
`D8V`: “normalised enrichment score” 2.61.
`D8F` — result for “normalised enrichment score”: 7.44.
Under “normalised enrichment score”, `D12Q` is recorded as 1.95.
`P1T`: “normalised enrichment score” 0.786.
Under “normalised enrichment score”, `D12Y` is recorded as 2.72.
`D8L` — result for “normalised enrichment score”: 2.26.
Under “normalised enrichment score”, `V3M` is recorded as 0.794.
`P1K`: “normalised enrichment score” 2.06.
Under “normalised enrichment score”, `V3N` is recorded as 0.971.
For `R6A`, “normalised enrichment score” read 0.112.
`K4S`: “normalised enrichment score” 0.921.
`T11V`: “normalised enrichment score” 1.97.
`L7C` — result for “normalised enrichment score”: 0.498.
`K4G`: “normalised enrichment score” -0.361.
`R6F`: “normalised enrichment score” 0.06.
For `P2E`, “normalised enrichment score” read 0.907.
`R6Q` — result for “normalised enrichment score”: 2.02.
`D12V`: “normalised enrichment score” 1.57.

Set 4
Target: ABI1, truncated, D143A, DHFR fusion (Arabidopsis thaliana)
Technique: DHFR PCA, deep sequencing
Medium: yeast
Setting: methotrexate growth selection, single substitutions
Together with: (+)-ABA 58 µM
Baseline: wild-type fitted maximum
Direction: higher = stronger binding
Starting sequence: PYL1, truncated, DHFR fusion (Arabidopsis thaliana); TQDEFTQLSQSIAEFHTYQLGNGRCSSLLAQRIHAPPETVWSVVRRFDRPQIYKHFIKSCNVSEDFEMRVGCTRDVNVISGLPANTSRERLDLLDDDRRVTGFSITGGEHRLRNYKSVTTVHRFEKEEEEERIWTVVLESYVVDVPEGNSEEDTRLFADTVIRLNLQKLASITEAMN
For `A170W`, “relative binding score” read 0.457%.
Under “relative binding score”, `R155N` is recorded as 64.1%.
For `G102Q`, “relative binding score” read 38.1%.
For `S104C`, “relative binding score” read 53.1%.
`T135H`: “relative binding score” -13.4%.
`N77R`: “relative binding score” 94%.
For `S87N`, “relative binding score” read 4.63%.
Under “relative binding score”, `R74M` is recorded as -24.3%.
`Q2A` — result for “relative binding score”: 92%.
For `V145F`, “relative binding score” read 11.6%.
For `F15V`, “relative binding score” read 39.8%.
`L29K`: “relative binding score” 47.6%.
`A35N`: “relative binding score” 1.12%.
`G107Q`: “relative binding score” 53.5%.
Under “relative binding score”, `E152M` is recorded as 77.7%.
For `S150F`, “relative binding score” read 27.8%.
`S27L` — result for “relative binding score”: 6.22%.
Under “relative binding score”, `V118A` is recorded as 42.3%.
`R99H` — result for “relative binding score”: 95%.
For `S9K`, “relative binding score” read 102%.
`E109I`: “relative binding score” 72.6%.
`N165L`: “relative binding score” 1.52%.

Set 5
Target: NFE2L1, bZIP domain (human)
Technique: DHFR protein complementation
Medium: yeast
Setting: single substitutions, most at no-binding floor
Baseline: wild-type JUN-FOS pair
Direction: higher = stronger binding
Starting sequence: JUN, bZIP domain (human); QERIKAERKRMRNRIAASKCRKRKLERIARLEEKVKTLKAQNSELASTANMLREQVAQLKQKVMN; partner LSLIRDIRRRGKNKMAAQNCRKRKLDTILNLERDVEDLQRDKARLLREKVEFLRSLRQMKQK
`T37L` gave a binding fitness of -1.58 natural log.
For `Q41S`, the binding fitness was -1.56 natural log.
`R53H` gave a binding fitness of -1.52 natural log.
The binding fitness of `Q55M` is reported as -1.52 natural log.
With `Q55R` the binding fitness was -1.38 natural log.
For `R30A`, the binding fitness was -1.44 natural log.
`Q55K` gave a binding fitness of -1.48 natural log.
`E33S` has a binding fitness of -1.55 natural log.
`N42K` gave a binding fitness of -1.45 natural log.
The binding fitness of `K34P` is reported as -1.46 natural log.
`R30S` has a binding fitness of -1.47 natural log.
The binding fitness of `A29L` is reported as -1.53 natural log.
With `A57C` the binding fitness was -1.53 natural log.
With `A49P` the binding fitness was -1.55 natural log.
`R53W` has a binding fitness of -1.67 natural log.

Set 6
Target: Prothrombin, mature alpha-thrombin (F2, Homo sapiens, UniProt P00734)
Technique: aptamer microarray, sandwich
Molecule type: DNA with 2'F-ANA
Medium: in vitro
Tested at: 200 nM
Setting: whole 15-mer aptamer, many near background
Together with: Cy3 exosite-II aptamer, 400 nM
Direction: higher = stronger binding
Sequence: GGTTGGTGTGGTTGG
`2'F-ANA at 1 3 9 10 11 13 14` — result for “mean fluorescence intensity”: 74.8 a.u.
For `2'F-ANA at 1 3 4 6 9 10 12 15`, “mean fluorescence intensity” read 75.9 a.u.
`2'F-ANA at 1 2 3 8 9 11 12 15`: “mean fluorescence intensity” 375 a.u.
For `2'F-ANA at 1 2 3 4 5 7 10 12 13 14 15`, “mean fluorescence intensity” read 47 a.u.
`2'F-ANA at 2 4 5 7 8 10 12` — result for “mean fluorescence intensity”: 50.8 a.u.
Under “mean fluorescence intensity”, `2'F-ANA at 1 4 5 6 8 9 10 11 15` is recorded as 51.7 a.u.
For `2'F-ANA at 1 2 4 5 7 9 10 12 13 14 15`, “mean fluorescence intensity” read 49.1 a.u.
For `2'F-ANA at 3 5 6 8 9 11 13 15`, “mean fluorescence intensity” read 78.7 a.u.
For `2'F-ANA at 5 7 8 12 13 14`, “mean fluorescence intensity” read 49 a.u.
`2'F-ANA at 3 5 7 8 13` — result for “mean fluorescence intensity”: 118 a.u.
For `2'F-ANA at 1 2 3 4 5 9 11 12 14`, “mean fluorescence intensity” read 48.9 a.u.
`2'F-ANA at 2 3 6 8 11 12 13 14 15` — result for “mean fluorescence intensity”: 368 a.u.
For `2'F-ANA at 5 7 8 9 11 13 14`, “mean fluorescence intensity” read 52.7 a.u.
For `2'F-ANA at 1 2 6 11`, “mean fluorescence intensity” read 121 a.u.
`2'F-ANA at 2 3 4 5 6 8 11 13 15`: “mean fluorescence intensity” 75.6 a.u.
For `2'F-ANA at 1 2 3 6 7 9 10 11 12 14`, “mean fluorescence intensity” read 68 a.u.
`2'F-ANA at 2 3 4 5 6 7 10 13 14 15` — result for “mean fluorescence intensity”: 61.8 a.u.
`2'F-ANA at 5 6 7 8 12 14 15`: “mean fluorescence intensity” 75.9 a.u.
For `2'F-ANA at 1 2 3 4 5 6 7 9 10 13 14`, “mean fluorescence intensity” read 50.4 a.u.
